Measurements collected from several papers.
Each line is one published result; not all experiments were run side by side.

SMILES | target or system | assay | test system | conditions | scale | quantity | value
CC(C)CC1NC(=O)C(C(=O)NC(C(=O)NC2C(=O)N3C2SC(C)(C)C3C(=O)O)c2ccccc2)=C1O (centres unmarked) | Escherichia coli | broth microdilution | ATCC 25922 wild type | added: clavulanic acid 6 µg/mL |  | MIC | 12.5 µg/mL
CC1(C)S[C@@H]2[C@H](NC(=O)[C@H](N)c3ccccc3)C(=O)N2[C@H]1C(=O)O | Salmonella enterica serovar Derby | broth microdilution | clinical isolate RKI-No 270/14 |  |  | MIC | > 16 µg/mL
OC[C@H]1O[C@H](OC[C@H]2O[C@H](O[C@]3(CO)O[C@H](CO)[C@@H](O)[C@@H]3O)[C@H](O)[C@@H](O)[C@@H]2O)[C@H](O)[C@@H](O)[C@H]1O |  | binding, equilibrium dialysis LC-MS |  | 5 µM, thermostabilized A2AR-BRIL construct | reference: no-protein control, direction not given | z-scored log2 fold change | 0.163
C[C@H]1[C@H](NC(=O)/C(=N\OC(C)(C)C(=O)O)c2csc(N)n2)C(=O)N1S(=O)(=O)O | Proteus mirabilis | agar dilution | ATCC 49565 susceptible |  |  | MIC | ≤ 0.03 µg/mL
CC1(C)SC2C(NC(=O)C(NC(=O)C3=C(O)C(Cc4ccsc4)NC3=O)c3ccccc3)C(=O)N2C1C(=O)O (centres unmarked) | Escherichia coli | broth microdilution | ATCC 25922 wild type | no clavulanic acid |  | MIC | 12.5 µg/mL
Cn1cc(-c2ccc3nnc(Sc4ccc5ncccc5c4)n3n2)cn1 | iCell Cardiomyocytes (hiPSC-derived) | xCELLigence Cardio impedance |  | concentration not given, 2 h | reference: control | beat amplitude | 99.8%
C[C@H]1[C@H](NC(=O)/C(=N\OC(C)(C)C(=O)O)c2csc(N)n2)C(=O)N1S(=O)(=O)O | Proteus mirabilis | broth microdilution |  | 18 h |  | MIC | 2 µg/mL
CNC(C)C1CCC(N)C(OC2C(N)CC(N)C(OC3OCC(C)(O)C(NC)C3O)C2O)O1 (centres unmarked) | Staphylococcus cohnii | broth microdilution | L5 | 18 h |  | MIC | > 128 µg/mL
CC1(C)S[C@@H]2[C@H](NC(=O)[C@H](N)c3ccccc3)C(=O)N2[C@H]1C(=O)O | Proteus mirabilis | broth microdilution |  | 18 h |  | MIC | 128 µg/mL
CC[C@H]1OC(=O)[C@H](C)[C@@H](O[C@H]2C[C@@](C)(OC)[C@@H](O)[C@H](C)O2)[C@H](C)[C@@H](O[C@@H]2O[C@H](C)C[C@H](N(C)C)[C@H]2O)[C@](C)(O)C[C@@H](C)C(=O)[C@H](C)[C@@H](O)[C@]1(C)O | Staphylococcus cohnii | broth microdilution | L5 | 18 h |  | MIC | > 128 µg/mL
CCCCCCCCCC(=O)N[C@@H](Cc1c[nH]c2ccccc12)C(=O)N[C@H](CC(N)=O)C(=O)N[C@@H](CC(=O)O)C(=O)N[C@@H]1C(=O)NCC(=O)N[C@@H](CCCN)C(=O)N[C@@H](CC(=O)O)C(=O)N[C@H](C)C(=O)N[C@@H](CC(=O)O)C(=O)NCC(=O)N[C@H](CO)C(=O)N[C@@H]([C@H](C)CC(=O)O)C(=O)N[C@@H](CC(=O)c2ccccc2N)C(=O)O[C@@H]1C | Staphylococcus aureus |  | SH1000 | added: lysophosphatidylethanolamine, molar ratio 0.5 |  | MIC | 1 µg/mL
CC1(C)S[C@@H]2[C@H](NC(=O)Cc3ccccc3)C(=O)N2[C@H]1C(=O)O | Staphylococcus cohnii | broth microdilution | L5 | 18 h |  | MIC | 16 µg/mL
CNC(C)C1CCC(N)C(OC2C(N)CC(N)C(OC3OCC(C)(O)C(NC)C3O)C2O)O1 (centres unmarked) | Pseudomonas aeruginosa |  | clinical isolate RKI-No_615/15 |  |  | MIC | > 8 µg/mL
N[C@H](CCSSCC[C@@H](N)C(=O)O)C(=O)O (racemic) |  | binding, equilibrium dialysis LC-MS |  | 5 µM, thermostabilized A2AR-BRIL construct | reference: no-protein control, direction not given | z-scored log2 fold change | 0.22
C[C@@H](O)[C@H]1C(=O)N2C(C(=O)O)=C(S[C@@H]3CN[C@H](C(=O)N(C)C)C3)[C@H](C)[C@H]12 | Proteus mirabilis | broth microdilution |  | 18 h |  | MIC | 0.5 µg/mL
CS(=O)(=O)c1ccc([C@@H](O)[C@@H](CF)NC(=O)C(Cl)Cl)cc1 | Staphylococcus cohnii | broth microdilution | L5 | 18 h |  | MIC | > 128 µg/mL
C[C@H]1COc2c(N3CCN(C)CC3)c(F)cc3c(=O)c(C(=O)O)cn1c23 | Proteus mirabilis | broth microdilution |  | 18 h |  | MIC | 0.5 µg/mL
CN(C)[C@@H]1C(O)=C(C(N)=O)C(=O)[C@@]2(O)C(O)=C3C(=O)c4c(O)cccc4[C@@](C)(O)[C@H]3C[C@@H]12 | Staphylococcus cohnii | broth microdilution | L5 | 18 h |  | MIC | > 128 µg/mL
CCn1cc(C(=O)O)c(=O)c2cc(F)c(N3CCNCC3)cc21 | Proteus mirabilis | broth microdilution |  | 18 h |  | MIC | 0.5 µg/mL
CC(=O)NC[C@H]1CN(c2ccc(N3CCOCC3)c(F)c2)C(=O)O1 | Staphylococcus aureus | broth microdilution | vancomycin-resistant VRS4 |  |  | MIC | 4 µM

For quick reference, copied from above:
SMILES | target or system | assay | test system | conditions | scale | quantity | value
CS(=O)(=O)c1ccc([C@@H](O)[C@@H](CF)NC(=O)C(Cl)Cl)cc1 | Staphylococcus cohnii | broth microdilution | L5 | 18 h |  | MIC | > 128 µg/mL
